Results pooled from the literature.
Protocols differ between the studies behind these lines. Numbers after ± are the reported error.
B1: enzyme (Trypanosoma brucei, UniProt Q9GV41); chain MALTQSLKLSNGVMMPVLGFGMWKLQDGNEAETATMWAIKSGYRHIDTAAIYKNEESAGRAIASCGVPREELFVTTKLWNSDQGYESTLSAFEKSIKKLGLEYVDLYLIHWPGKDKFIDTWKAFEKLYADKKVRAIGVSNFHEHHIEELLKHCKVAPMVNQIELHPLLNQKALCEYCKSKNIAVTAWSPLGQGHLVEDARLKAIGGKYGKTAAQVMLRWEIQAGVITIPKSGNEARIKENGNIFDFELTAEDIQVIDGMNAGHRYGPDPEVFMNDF
B2: enzyme (Pseudomonas aeruginosa, UniProt Q9HWT7); chain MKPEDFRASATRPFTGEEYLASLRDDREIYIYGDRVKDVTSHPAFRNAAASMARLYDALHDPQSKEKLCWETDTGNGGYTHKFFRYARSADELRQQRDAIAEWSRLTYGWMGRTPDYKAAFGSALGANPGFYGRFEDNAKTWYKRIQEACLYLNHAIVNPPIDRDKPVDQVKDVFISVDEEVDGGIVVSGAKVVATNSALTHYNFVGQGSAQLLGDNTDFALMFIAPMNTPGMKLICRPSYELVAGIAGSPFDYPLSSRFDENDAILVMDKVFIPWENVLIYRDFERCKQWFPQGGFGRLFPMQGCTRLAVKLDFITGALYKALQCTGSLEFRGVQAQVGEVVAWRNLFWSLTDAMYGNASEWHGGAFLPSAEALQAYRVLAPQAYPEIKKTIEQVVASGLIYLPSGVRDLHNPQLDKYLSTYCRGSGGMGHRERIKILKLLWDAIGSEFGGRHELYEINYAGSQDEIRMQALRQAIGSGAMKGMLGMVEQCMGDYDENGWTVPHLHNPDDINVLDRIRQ
B3: bglA A17S/S39T/T105V (Acetivibrio thermocellus, UniProt P26208); chain MSKITFPKDFIWGSATSAYQIEGAYNEDGKGESIWDRFTHTPGNIADGHTGDVACDHYHRYEEDIKIMKEIGIKSYRFSISWPRIFPEGTGKLNQKGLDFYKRLVNLLLENGIMPAITLYHWDLPQKLQDKGGWKNRDTTDYFTEYSEVIFKNLGDIVPIWFTHNEPGVVSLLGHFLGIHAPGIKDLRTSLEVSHNLLLSHGKAVKLFREMNIDAQIGIALNLSYHYPASEKAEDIEAAELSFSLAGRWYLDPVLKGRYPENALKLYKKKGIELSFPEDDLKLISQPIDFIAFNNYSSEFIKYDPSSESGFSPANSILEKFEKTDMGWIIYPEGLYDLLMLLDRDYGKPNIVISENGAAFKDEIGSNGKIEDTKRIQYLKDYLTQAHRAIQDGVNLKAYYLWSLLDNFEWAYGYNKRFGIVHVNFDTLERKIKDSGYWYKEVIKNNGF
B4: GcL (Parageobacillus, UniProt A0A023DFE8); chain MANVIKARPKLYVMDNGRMRMDKNWMIAMHNPATIHNPNAQTEFVEFPIYTVLIDHPEGKILFDTSCNPNSMGPQGRWAESTQQMFPWTATEECYLHNRLEQLKVRPEDIRYVVASHLHLDHAGCLEMFTNATIIVHEDEFNGALQCYARNQKEGAYIWADIDAWIKNNLQWRTVKRHEDNILLAEGVKVLNFGSGHAWGMLGLHVELPETGGIILASDAIYTAESYGPPIKPPGIIYDSLGYMNTVERIRRIAQETKSQVWFGHDAEQFKKFRKSTEGYYE
B5: enzyme (Enterococcus faecalis, UniProt Q838J7); chain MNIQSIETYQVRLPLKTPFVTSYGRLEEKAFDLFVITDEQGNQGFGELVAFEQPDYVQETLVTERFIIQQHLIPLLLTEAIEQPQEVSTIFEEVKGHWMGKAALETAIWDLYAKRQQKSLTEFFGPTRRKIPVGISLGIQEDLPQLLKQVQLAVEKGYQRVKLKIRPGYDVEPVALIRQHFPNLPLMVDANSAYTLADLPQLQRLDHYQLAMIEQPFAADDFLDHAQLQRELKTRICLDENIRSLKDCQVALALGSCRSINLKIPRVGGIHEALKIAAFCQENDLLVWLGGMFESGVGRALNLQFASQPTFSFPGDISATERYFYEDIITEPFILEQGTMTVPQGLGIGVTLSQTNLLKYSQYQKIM
B6: enzyme (Cyanidioschyzon merolae, UniProt M1V8C6); chain EPPRDTAATSSHEFTHHVTEKAKDWSGSGTWLQSYIEQGPLAAAIPPQYAPSRSLSRWQAWGSYLFKELGLDGTLERDQNRIFRFYLPVFAWSLHVVNRLQRDERRKQHGVIIGLQCPQGGGKTTLTAALQKLFDLEQRRCVSLSIDDFYLTRREQEALARAFPENPLLGSRGNPGTHDISLALQVLNEVVAAPYPGEHAEVAVPRYDKSAFQGLGDRAPPEQWPLVSRPVDVVFLEGWCLGFRPLALHERPATMDPITLRHLMQVDRFLAEDFSRLYPLLDAFIVIALDGPKLSESLRIVYQWRLEAEQQMRAAGRPAMTDEQVYAFVDKFMPAYKAYLGDLYGGPPLTGNLSRELRVGIDETRSPTRLNPHSELVP
B7: enzyme (Enterococcus faecalis, UniProt Q836M4); chain MEIHFEKVTSDNRKAVENLQVFAEQQAFIESMAENLKESDQFPEWESAGIYDGNQLIGYAMYGRWQDGRVWLDRFLIDQRFQGQGYGKAACRLLMLKLIEKYQTNKLYLSVYDTNSSAIRLYQQLGFVFNGELDTNGERVMEWTHQNK
Sequence of UniProt P30566 (whole entry, looked up): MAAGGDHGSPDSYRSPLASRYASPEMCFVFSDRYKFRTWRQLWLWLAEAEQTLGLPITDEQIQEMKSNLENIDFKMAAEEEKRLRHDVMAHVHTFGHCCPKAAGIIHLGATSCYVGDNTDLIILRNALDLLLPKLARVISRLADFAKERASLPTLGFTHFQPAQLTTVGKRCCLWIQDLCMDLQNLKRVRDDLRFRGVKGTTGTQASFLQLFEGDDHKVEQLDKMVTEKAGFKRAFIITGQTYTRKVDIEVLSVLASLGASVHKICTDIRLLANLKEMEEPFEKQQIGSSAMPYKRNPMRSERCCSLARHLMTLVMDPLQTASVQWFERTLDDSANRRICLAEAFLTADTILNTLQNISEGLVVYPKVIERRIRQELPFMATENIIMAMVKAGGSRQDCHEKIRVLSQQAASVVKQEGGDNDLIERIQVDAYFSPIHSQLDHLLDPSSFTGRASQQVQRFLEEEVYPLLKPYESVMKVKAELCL
Sequence of UniProt Q75I93 (whole entry, looked up): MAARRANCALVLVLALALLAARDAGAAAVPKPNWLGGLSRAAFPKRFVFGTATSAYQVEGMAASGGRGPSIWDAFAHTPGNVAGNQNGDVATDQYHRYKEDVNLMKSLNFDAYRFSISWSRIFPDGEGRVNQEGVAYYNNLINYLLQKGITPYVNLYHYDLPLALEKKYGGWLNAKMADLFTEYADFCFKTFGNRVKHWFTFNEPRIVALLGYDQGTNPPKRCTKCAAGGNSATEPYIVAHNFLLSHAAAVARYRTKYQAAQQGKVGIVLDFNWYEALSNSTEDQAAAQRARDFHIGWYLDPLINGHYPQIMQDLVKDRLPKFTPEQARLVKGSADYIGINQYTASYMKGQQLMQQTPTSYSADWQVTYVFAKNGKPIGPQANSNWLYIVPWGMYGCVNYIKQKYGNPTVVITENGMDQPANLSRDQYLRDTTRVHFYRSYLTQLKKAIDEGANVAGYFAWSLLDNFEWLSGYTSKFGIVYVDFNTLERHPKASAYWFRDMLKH

enzyme (Nilaparvata lugens, UniProt B3GVW3)
kcat (COc1ccc([C@@H]2CC(=O)c3c(O)cc(O)cc3O2)cc1O; steady-state kinetics; not purified): 0.0127 ± 0.002 s⁻¹

B1 (enzyme)
kcat ([H][C@]12C[C@]([H])(OO1)[C@H](C/C=C\CCCC(=O)O)[C@H]2/C=C/[C@@H](O)CCCCC; steady-state kinetics; pH 7, 37 °C): 1.05 s⁻¹

B2 (enzyme)
kcat (O=C(O)/C=C/c1ccc(O)cc1; steady-state kinetics; pH 8, 37 °C, with: NADH 1 mM, FAD 10 µM, HpaC): 0.0624 ± 0.00205 s⁻¹

B3 (bglA A17S/S39T/T105V)
kcat (O=[N+]([O-])c1ccc(O[C@@H]2O[C@H](CO)[C@@H](O)[C@H](O)[C@H]2O)cc1; steady-state kinetics; pH 5.5, 60 °C): 282 ± 5 s⁻¹

B4 (GcL)
kcat (CCCC(=O)N[C@H]1CCOC1=O; steady-state kinetics; pH 8.3, with: CoCl2 0.2 mM): 19.5 ± 2.6 s⁻¹

pdc E473D (Zymomonas mobilis)
kcat (CC(=O)C(=O)O; steady-state kinetics; pH 6, 30 °C): 0.1 ± 0.003 s⁻¹

ADSL (Homo sapiens, UniProt P30566)
kcat (Nc1c(C(=O)N[C@@H](CC(=O)O)C(=O)O)ncn1[C@@H]1O[C@H](COP(=O)(O)O)[C@@H](O)[C@H]1O; steady-state kinetics; pH 7.4, 25 °C): 90.2 ± 1.9 s⁻¹

insulin human
fold change (item: SLC1A2 mRNA; mouse, uninfected, brain; intraperitoneal, dose not given; baseline: PBS): 1.26

B5 (enzyme)
kcat (O=C(O)CCC(=O)C1=CC=C[C@@H](O)[C@@H]1C(=O)O; steady-state kinetics; pH 8, 25 °C): 310 ± 12 s⁻¹

rCR L137V (Lodderomyces parapsilosis)
kcat (CC(=O)c1ccc(Cl)cc1; steady-state kinetics; pH 7, 30 °C, with: NADH 0.5 mM): 3.58 ± 0.11 s⁻¹

nfsB K14R (Escherichia coli)
kcat (NC(=O)N/N=C/c1ccc([N+](=O)[O-])o1; steady-state kinetics; pH 7, 37 °C): 2.7 ± 0.3 s⁻¹

B6 (enzyme)
kcat (Nc1ncnc2c1ncn2[C@@H]1O[C@H](COP(=O)(O)OP(=O)(O)OP(=O)(O)O)[C@@H](O)[C@H]1O; steady-state kinetics; pH 7.8, 30 °C): 22.3 ± 0.64 s⁻¹

B7 (enzyme)
kcat (CC(=O)SCCNC(=O)CCNC(=O)[C@H](O)C(C)(C)COP(=O)(O)OP(=O)(O)OC[C@H]1O[C@@H](n2cnc3c(N)ncnc32)[C@H](O)[C@@H]1OP(=O)(O)O; steady-state kinetics; pH 8, 37 °C, Hill n 1.36, with: spermine 1 mM): 26.7 ± 0.7 s⁻¹

BGLU7 (Oryza sativa, UniProt Q75I93)
kcat (CC(C)(C#N)O[C@@H]1O[C@H](CO)[C@@H](O)[C@H](O)[C@H]1O; steady-state kinetics; pH 6, 30 °C, not purified): 29.9 ± 2.33 s⁻¹
